Results gathered from unrelated publications.
Each numbered part is a random draw from the data of one study; scales do not carry over between parts.
Sequence of UniProt Q9SV15 (228-325, looked up): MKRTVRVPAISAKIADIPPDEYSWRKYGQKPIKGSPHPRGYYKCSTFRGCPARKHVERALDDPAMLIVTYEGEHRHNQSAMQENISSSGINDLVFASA

Study 1
Target: PABPC1L2, full length, GST fusion (mouse, UniProt A0ABA7IW68)
Method: RNAcompete
Form: RNA
Matrix: in vitro
Tested at: 20 nM
Notes: 7-mer, probes averaged, single round
Baseline: mean of 7-mers
Direction: higher = stronger binding
Quantity: 7-mer Z-score
Construct (chain): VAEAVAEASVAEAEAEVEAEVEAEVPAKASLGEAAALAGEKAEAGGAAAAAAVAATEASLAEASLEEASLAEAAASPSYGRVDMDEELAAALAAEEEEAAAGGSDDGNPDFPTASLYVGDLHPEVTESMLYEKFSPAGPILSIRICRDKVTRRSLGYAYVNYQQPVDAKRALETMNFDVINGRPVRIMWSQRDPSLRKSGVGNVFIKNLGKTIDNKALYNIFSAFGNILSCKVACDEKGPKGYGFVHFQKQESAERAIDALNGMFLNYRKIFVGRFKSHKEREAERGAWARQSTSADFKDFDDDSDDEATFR
UCGUCAA: -0.287
GCCACAU: -0.0736
GUAGACA: 0.193
CUACACC: -0.295
CAUCAAU: -0.213
CAACUCU: -0.17
UUAACGG: -0.141
GGGAUCU: 0.311

Study 2
Target: Eukaryotic initiation factor 4A-I (EIF4A1, Homo sapiens, UniProt P60842, residues 1-406, full length assumed)
Sequence of UniProt P60842 (whole entry, looked up): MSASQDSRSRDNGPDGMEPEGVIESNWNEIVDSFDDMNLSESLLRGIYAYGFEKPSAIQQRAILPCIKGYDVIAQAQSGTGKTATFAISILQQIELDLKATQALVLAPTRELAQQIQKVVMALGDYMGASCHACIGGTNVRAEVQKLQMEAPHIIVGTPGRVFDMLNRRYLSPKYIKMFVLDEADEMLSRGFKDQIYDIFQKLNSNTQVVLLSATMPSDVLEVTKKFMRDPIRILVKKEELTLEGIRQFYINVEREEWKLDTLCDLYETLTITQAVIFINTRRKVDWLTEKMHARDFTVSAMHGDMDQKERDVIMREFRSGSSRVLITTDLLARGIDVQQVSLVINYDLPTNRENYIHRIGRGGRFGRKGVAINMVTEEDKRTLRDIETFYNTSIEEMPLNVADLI
Method: RNA Bind-n-Seq
Form: RNA
Matrix: in vitro
Tested at: 90 pmol
Notes: 4-mer, random 30-nt RNA, single round
With: 3 µM DMDA-PatA, 2 mM ADP, 2 mM phosphate
Baseline: input library
Direction: higher = stronger binding
Quantity: 4-mer enrichment
AUAU: 0.979 fold
GACA: 0.809 fold
UAUC: 0.678 fold
GAUC: 0.67 fold

Study 3
Target: Replicase polyprotein 1ab, main protease (rep, Severe acute respiratory syndrome coronavirus 2, UniProt P0DTD1)
Effect on: enzyme activity
Mode: inhibitor
Notes: without DTT
Quantity: IC50
CC(C)Nc1cccnc1N1CCN(C(=O)c2cc3cc(NS(C)(=O)=O)ccc3[nH]2)CC1: 4 µM
C[C@@H](CN1CC(=O)NC(=O)C1)N1CC(=O)NC(=O)C1: 6.2 µM
Nc1nc2c(ncn2[C@@H]2O[C@H](CO)[C@@H](O)[C@H]2O)c(=S)[nH]1: 1.1 µM

Study 4
Target: Replicase polyprotein 1ab, nsp13 helicase (rep, Severe acute respiratory syndrome coronavirus 2, UniProt P0DTD1)
Mode: inhibitor
Tested at: 20 µM
Quantity: inhibition
COc1cccc(CN(C(=O)CC(C)(C)C)[C@H]2C[C@@H](C(=O)N3CCNCC3)N(Cc3ccc4c(c3)OCO4)C2)c1: 4.85%
N=C(N)c1ccc(/C=C/c2ccc(C(=N)N)cc2O)cc1: 16.4%
CC(C)=CCC[C@](C)(O[C@@H]1O[C@H](CO)[C@@H](O)[C@H](O)[C@H]1O)[C@H]1CC[C@]2(C)[C@@H]1[C@H](O)C[C@@H]1[C@@]3(C)CC[C@H](O[C@@H]4O[C@H](CO)[C@@H](O)[C@H](O)[C@H]4O[C@@H]4O[C@H](CO)[C@@H](O)[C@H](O)[C@H]4O)C(C)(C)[C@@H]3CC[C@]12C: 4.47%
O=S(=O)(O)NC1CCCCC1: 5.31%
Cn1cc(/C=C/C(=O)c2cccc(F)c2)cc1/C=C/C(=O)NO: 0.68%
COc1cc(NS(=O)(=O)c2ccc(N)cc2)ncn1: 2.95%
O=C(NO)c1ccc2[nH]c(=O)c(CCCc3ccccc3)nc2c1: -4.42%
CCn1c2ccccc2c2cc(CNCc3ccccc3OC)ccc21: 10.4%
COc1ccc(/C=C/C(=O)O)cc1: 0.21%
COc1cc(Br)c(S(=O)(=O)Nc2ccc(C(F)(F)F)c(O[C@@H]3CCN(C)C3)c2)cc1OC: 0.91%
Cc1ccccc1N1C(=O)c2cc(S(N)(=O)=O)c(Cl)cc2NC1C (centres unmarked): 4.29%
Cc1ccc(=O)n(-c2ccc(O)cc2)c1: 5.34%
CS(=O)(=O)Nc1ccc(-c2coc3cc(OCc4cccc(C(=O)O)c4)ccc3c2=O)cc1: 6.5%
O=C(NO)c1ccc(O)c(O)c1: -1.47%
CN1CCN(c2cc3c(cc2F)c(=O)c(C(=O)O)cn3-c2ccc(F)cc2)CC1: 4.28%
CCCCCN(C)CCC(O)(P(=O)(O)O)P(=O)(O)O: 7.79%
CCCCCCCC(=O)OCC(O)CO (centres unmarked): -3.41%
C#Cc1cncc([C@@H]2CCCN2C)c1: -1.88%
CS(=O)(=O)OCCCCOS(C)(=O)=O: 1.78%
CCCCC[C@H](O)/C=C/[C@@H]1[C@H]2C/C(=C/CCCC(=O)O)O[C@H]2C[C@H]1O: -2.78%
COc1ccc(Nc2ncnc3ccc(OC)cc23)cc1: -0.92%
N#CN=C(NCCCCCCOc1ccc(Cl)cc1)Nc1ccncc1: 3.03%
COc1ccc(/C=C2\CCCN=C2c2cccnc2)c(OC)c1: 1.6%
C1CCN2C[C@@H]3C[C@@H](CN4CCCC[C@@H]34)[C@H]2C1: 2.97%
CNC(=O)c1ccccc1Nc1cc(Nc2ccc(N3CCOCC3)cc2OC)ncc1C(F)(F)F: 6.51%

Study 5
Target: Ras GTPase-activating protein-binding protein 1, RRM domain (G3BP1, Homo sapiens, UniProt Q13283)
Sequence of UniProt Q13283 (whole entry, looked up): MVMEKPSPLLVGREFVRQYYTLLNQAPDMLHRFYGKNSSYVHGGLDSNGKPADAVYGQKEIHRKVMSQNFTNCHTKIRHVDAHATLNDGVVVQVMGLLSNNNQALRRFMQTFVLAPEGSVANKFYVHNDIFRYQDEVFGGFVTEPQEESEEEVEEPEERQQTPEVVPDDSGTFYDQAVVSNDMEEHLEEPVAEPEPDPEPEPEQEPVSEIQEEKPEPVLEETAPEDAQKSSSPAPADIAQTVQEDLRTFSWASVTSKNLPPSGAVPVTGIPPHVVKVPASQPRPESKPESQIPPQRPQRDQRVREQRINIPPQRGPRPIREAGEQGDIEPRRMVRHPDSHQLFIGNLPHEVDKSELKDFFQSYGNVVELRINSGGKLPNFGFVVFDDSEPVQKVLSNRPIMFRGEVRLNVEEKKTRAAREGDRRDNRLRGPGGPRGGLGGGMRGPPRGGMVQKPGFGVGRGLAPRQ
Method: RNA Bind-n-Seq
Form: RNA
Matrix: in vitro
Tested at: 1 µM
Notes: whole 134-nt RNA, ends assumed
With: 150 mM KCl
Baseline: input library
Direction: higher = stronger binding
Quantity: log2 enrichment
Shared flanks, not repeated: GGGAGUUCUACAGUCCGACGAUC … UGGAAUUCUCGGGUGUCAAGG
UACCUGAUCAAUGACAGAGCCUUCUGAGGACAUUCCAAGACAGUAUACAGUCCUGUGGUCUCCUUGGAAAUCCGUCUAGUUAACAUUUCA: -0.209
GCAGGAAGUAAAAACAAAUGGAAAUGCUUCGGAUAGUGGCAGGGGUGGAGGUUGCUAAGGAAAGGGUGGGAUGGGAGUGGGUAAAGAGUU: 0.797
UAACUUUAGAGGAGGAUCUGAUGGAUAUGGCAGUGGACGUGGAUUUGGGGAUGGCUAUAAUGGGCAUGGAGGAGGACCUGGAGGUGGCAA: -0.509
AAGUCCUGUGCUACACAUCGUAUGUACCGAAUCGGGGAAAGGGAAAGGGGAAAGGGAAAGUAUUAUGUUACGCCGUUCGGAUCUGCACUU: 0.358
GCAGGAAGUAAAAACAAAUGGAAAUGCUUCGGAUAGUGGCAGGGGUGGGGGUUGCUAAGGAAAGUGUGGGAUGGGAGUGGGUAAAGAGUU: 1.15
CCUCAAGUCCUGUGCUACACAUCGUAUGUACCGAAUCGGGAGGGGAGGGGAGGAAAGUAUUAUGUUACGCCGUUCGGAUCUGCACUUCCA: -0.137
CCUCAAGUCCUGUGCUACACAUCGUAUGUACCGAAUCGGCCGGCCGGGCCGGGAAAGUAUUAUGUUACGCCGUUCGGAUCUGCACUUCCA: -0.394
UUCCUCAAGUCCUGUGCUACACAUCGUAUGUACCGAAUCGGAGGUGGAGGAAAGUAUUAUGUUACGCCGUUCGGAUCUGCACUUCCAGCA: -0.335

Mixed results
WRKY33 N-terminal DNA-binding domain: Probable WRKY transcription factor 33, N-terminal DNA-binding domain (WRKY33, Arabidopsis thaliana, UniProt Q8S8P5, residues 169-264)
Sequence of UniProt Q8S8P5 (169-264, looked up): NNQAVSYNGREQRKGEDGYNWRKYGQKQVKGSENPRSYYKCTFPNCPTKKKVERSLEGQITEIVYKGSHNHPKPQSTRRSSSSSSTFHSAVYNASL
AAAAAATTCCGCGTGTATGTGTACGTAAAA — relative absorbance (WRKY33 N-terminal DNA-binding domain; DNA-protein interaction ELISA; double-stranded DNA, one strand shown, in vitro, bacterial lysate; not given, whole dsDNA probe, crude lysate protein; baseline: highest signal in screen, higher = stronger binding): 25.2 % of maximum
CC(C)n1cnc(-c2ccc(F)cc2)c1-c1ncc(C(=O)Nc2ccc(N3CCN(C)CC3)cc2)[nH]1 — patients with neoplasm TEAE (phase 2a clinical trial; patients with idiopathic pulmonary fibrosis; 30 mg once daily, all grades, SOC neoplasms benign, malignant, unspecified): 0%
AAAAAACAGGCCGATTCCGATCCCGGAAAA — relative absorbance (Probable WRKY transcription factor 11, DNA-binding domain (WRKY11, Arabidopsis thaliana, UniProt Q9SV15, residues 228-325); DNA-protein interaction ELISA; double-stranded DNA, one strand shown, in vitro, bacterial lysate; not given, whole dsDNA probe, crude lysate protein; baseline: highest signal in screen, higher = stronger binding): 13.5 % of maximum
C[C@]12C=CC(=O)C=C1CC[C@H]1[C@@H]3C[C@@H](O)[C@](O)(C(=O)CO)[C@@]3(C)C[C@H](O)[C@@]12F — viability (HEK-293T/ACE2; 10 µM, 16 h; baseline: vehicle): 102%
AAAAAACCCTACATCGCATATAAGAGAAAA — relative absorbance (WRKY33 N-terminal DNA-binding domain; DNA-protein interaction ELISA; double-stranded DNA, one strand shown, in vitro, bacterial lysate; not given, whole dsDNA probe, crude lysate protein; baseline: highest signal in screen, higher = stronger binding): 20.7 % of maximum

Excerpt of the above (study 2):
GACA: 0.809 fold
GAUC: 0.67 fold
UAUC: 0.678 fold
AUAU: 0.979 fold
